Experimental data of several laboratories.
Each numbered part is a random draw from the data of one study; scales do not carry over between parts.

Sample 1
Target: Protein max, full length (MAX, Homo sapiens, UniProt P61244-2, residues 1-151)
Method: protein-binding microarray
Molecule type: double-stranded DNA, one strand shown
Sample: in vitro
Tested at: not given
Notes: k-mer, scored over probes, only values ≥0.25
Direction: higher = stronger binding
| Sequence | E-score |
| --- | --- |
| CCCCGCCG | 0.281 |
| CGGCACGA | 0.331 |
| ACGAGGCG | 0.34 |
| CCACGCGC | 0.462 |
| ACAGGTGA | 0.306 |
| ACACCTGG | 0.358 |
| GTGTGATA | 0.252 |
| ATGTGAGC | 0.319 |
| CATATGTA | 0.276 |
| ACGTGTAT | 0.447 |
| TACACGCA | 0.286 |
| CAGCACGC | 0.403 |

Sample 2
Target: Cyclic AMP-responsive element-binding protein 1, full length (CREB1, Homo sapiens, UniProt P16220, residues 1-327)
Sequence of UniProt P16220 (whole entry, looked up): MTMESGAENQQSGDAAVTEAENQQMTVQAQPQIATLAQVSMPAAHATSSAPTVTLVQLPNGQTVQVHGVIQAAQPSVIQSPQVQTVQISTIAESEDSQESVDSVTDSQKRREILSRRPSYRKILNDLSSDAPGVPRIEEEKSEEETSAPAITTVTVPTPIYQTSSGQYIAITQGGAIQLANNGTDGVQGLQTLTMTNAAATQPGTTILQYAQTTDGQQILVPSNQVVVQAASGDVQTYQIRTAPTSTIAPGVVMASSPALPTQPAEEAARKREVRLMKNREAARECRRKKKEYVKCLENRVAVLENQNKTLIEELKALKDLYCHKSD
Method: protein-binding microarray
Molecule type: hairpin DNA
Sample: in vitro
Tested at: not given
Notes: whole hairpin DNA, median over replicate spots
Reference: not given
Direction: higher = stronger binding
Constant ends, left off below: GAGGCCG … CGGCCTCACACTC
| Sequence | median fluorescence |
| --- | --- |
| ACCGCGTCGTGCCTCCTGGCACGACGCGGT (5mC at 9 15 29) | 3390 a.u. |
| GATGCCGTCAGCCTCCTGGCTGACGGCATC | 3150 a.u. |
| GCTGACGTCGGCCTCCTGGCCGACGTCAGC | 5400 a.u. |
| ACGACGTCCGGCCTCCTGGCCGGACGTCGT (5mC at 9 15 35) | 2970 a.u. |
| GTTGACGTCAGCCTCCTGGCTGACGTCAAC | 9770 a.u. |
| ACGACGTCGCGCCTCCTGGCGCGACGTCGT (5mC at 9 15 17 29 35) | 4370 a.u. |
| GCTTACGTCAGCCTCCTGGCTGACGTAAGC | 7860 a.u. |
| CGGACGTCGTGCCTCCTGGCACGACGTCCG (5mC at 8 15 29 35) | 3560 a.u. |
| GACGACGTCAGCCTCCTGGCTGACGTCGTC | 5330 a.u. |
| ACGACGCCGTGCCTCCTGGCACGGCGTCGT (5mC at 9 15 29 35) | 3240 a.u. |
| GATGACGTCAGCCTCCTGGCTGACGTCATC | 22900 a.u. |
| ATGACGTCGTGCCTCCTGGCACGACGTCAT (5mC at 15 29 35) | 4780 a.u. |

Sample 3
Target: Interferon regulatory factor 7, full length, phosphomimetic (IRF7, Homo sapiens, UniProt Q92985, residues 1-503, S471D/S472D/S475D/S476D/S477D/S483D/S484D/S487D)
Method: protein-binding microarray
Molecule type: double-stranded DNA, one strand shown
Sample: in vitro
Tested at: 2200 nM top
Notes: 60-bp whole probe
Added: salmon DNA 0.4 mg/ml
Reference: random background probes
Direction: higher = stronger binding
Constant ends, left off below: GCCTAGCAC … GTCTTGATTCGCTTGACGCTGCTG
Residues (chain): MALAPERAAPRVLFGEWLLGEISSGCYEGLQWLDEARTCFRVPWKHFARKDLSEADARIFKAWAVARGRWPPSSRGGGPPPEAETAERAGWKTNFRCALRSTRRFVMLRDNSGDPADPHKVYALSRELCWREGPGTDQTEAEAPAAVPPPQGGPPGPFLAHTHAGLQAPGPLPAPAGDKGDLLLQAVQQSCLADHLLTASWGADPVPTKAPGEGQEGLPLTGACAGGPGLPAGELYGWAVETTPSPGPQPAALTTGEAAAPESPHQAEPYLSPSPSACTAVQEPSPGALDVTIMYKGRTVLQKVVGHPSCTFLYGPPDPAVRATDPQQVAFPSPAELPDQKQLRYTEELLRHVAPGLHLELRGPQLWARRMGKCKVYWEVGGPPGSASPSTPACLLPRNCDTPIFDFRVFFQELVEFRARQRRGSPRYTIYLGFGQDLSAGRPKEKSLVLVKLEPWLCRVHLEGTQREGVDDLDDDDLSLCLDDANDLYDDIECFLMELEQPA
| Sequence | fitted relative affinity [z-score] |
| --- | --- |
| CTAGGTATCCTTATCCTTTAGTGCTAG | 0.826 |
| TCATCTCTCAAAAGTCACACTGTGCTA | 0.501 |
| GACGGTATCCTTATACTGACGTGCTAG | 0.604 |
| GAATGATTACATATATGTTGGTGCTAG | 0.344 |
| GACGGCCTCCTTATCCTGACGTGCTAG | 0.647 |
| CATTTTCTAAATTCCCTAGTGTGCTAG | 3.21 |
| AGGACTCTGGAGGTTGAGAAAGTGCTA | -1.21 |
| TCACTTCTCTTTTGGCTACTGTGCTAG | 3.55 |
| GACGGTTTCGGAATGGGGACGTGCTAG | 7.17 |
| GACGATTTCGGGTATTGAGACGTGCTA | 2.36 |
| TTAGGTATCGGTCGCGGTTAGTGCTAG | 0.332 |
| GACGGTATCGGTTTCAGGACGTGCTAG | 2.29 |
| TTAGCTCTCGGTTTCGGTTAGTGCTAG | 6.73 |
| GAAGATGTCAAACTCACTCAGTGCTAG | -0.182 |
| GACGGTTTCGGTCTAGGGACGTGCTAG | 6.9 |

Sample 4
Target: Centromere-binding protein 1, full length, His-tagged (CBF1, Saccharomyces cerevisiae, UniProt P17106, residues 1-351)
Sequence of UniProt P17106 (whole entry, looked up): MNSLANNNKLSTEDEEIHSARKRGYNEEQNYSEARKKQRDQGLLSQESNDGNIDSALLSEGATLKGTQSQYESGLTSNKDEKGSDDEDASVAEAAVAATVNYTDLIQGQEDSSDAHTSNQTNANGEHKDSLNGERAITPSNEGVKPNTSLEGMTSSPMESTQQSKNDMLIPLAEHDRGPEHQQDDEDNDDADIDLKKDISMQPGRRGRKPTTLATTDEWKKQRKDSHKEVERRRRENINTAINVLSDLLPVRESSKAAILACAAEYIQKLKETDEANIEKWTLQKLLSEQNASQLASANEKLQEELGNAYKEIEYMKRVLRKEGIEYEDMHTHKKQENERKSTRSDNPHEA
Method: competition protein-binding microarray
Molecule type: double-stranded DNA, one strand shown
Sample: in vitro
Tested at: 2 µM
Notes: whole 60-bp probe, lowest competitor level
Added: Pho4 competitor, 0.05 µM
Direction: higher = stronger binding
| Sequence | fluorescence intensity [a.u.] |
| --- | --- |
| CTAACGAAGGTTTGTTGCGTGGGTGACAAGCCAAGTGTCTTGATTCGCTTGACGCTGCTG | 63.6 |
| CCTCTGAGAGCGAGTCACGGCCCGCTGAAGGGAAAGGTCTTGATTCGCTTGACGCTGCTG | 56.9 |
| GAACCATTGTCTTTGCACGTTGACACCTATGGTACTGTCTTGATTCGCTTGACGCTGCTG | 121 |
| TAGGATCGACTTACCCACGTCCAACTGCTGTTGACGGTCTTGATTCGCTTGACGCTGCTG | 55.3 |
| ATTAAAAAGTGGATAATCGTGGGACTTATGGGTAAAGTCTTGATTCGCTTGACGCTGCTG | 95.1 |
| CTTTCCCGATCTTGCCCTGTGGGTGTAGCACATTTGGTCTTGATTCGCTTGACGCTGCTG | 82.2 |
| CATACCCAACCTTGAAGTGTGGGTGAAGATATTTGTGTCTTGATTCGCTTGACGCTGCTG | 75.4 |
| CGGGGTTAAGTTTGCGGGGTGGGTGGCTTGCAGCAGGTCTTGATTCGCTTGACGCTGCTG | 83.7 |
| CGTTTGTAATACCATCACGTGCAAAATCTTCTCTTCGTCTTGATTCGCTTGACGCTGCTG | 6210 |
| CTTTCCCGATCTTGGTCTGTGGGTGTAGCACATTTGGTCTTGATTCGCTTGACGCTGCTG | 78.8 |
| CATCCTTTCCAACATGATGTGACGAATTAACGACTGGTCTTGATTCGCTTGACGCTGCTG | 97.5 |
| AGGGTACCTCTTCTAAACGTGCCGAAGAACACTCGAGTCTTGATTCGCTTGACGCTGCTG | 86.7 |
| AAAGCCTACGCGAGTCACGTTCCAGGAAGATGAAGGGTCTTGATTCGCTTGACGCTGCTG | 692 |
| TGCCAAAATCTGCCTCAGGTGACAAGCCATTTTTCCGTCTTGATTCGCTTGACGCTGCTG | 201 |
| CTTTCCCGATCTTTTCACGTGGTGTTAGCACATTTGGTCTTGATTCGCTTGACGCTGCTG | 1240 |

Sample 5
Target: Histone acetyltransferase KAT6A, winged helix 1, GST fusion (KAT6A, Homo sapiens, UniProt Q92794, residues 1-85)
Method: protein binding microarray
Molecule type: double-stranded DNA, one strand shown
Sample: in vitro
Tested at: not given
Notes: 8-mer, flanks averaged, mean of 2 arrays, mostly near background
Reference: not given
Direction: higher = stronger binding
Construct (chain): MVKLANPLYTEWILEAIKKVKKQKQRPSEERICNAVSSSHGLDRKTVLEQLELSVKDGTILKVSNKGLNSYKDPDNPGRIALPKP
| Sequence | E-score |
| --- | --- |
| CACTGATG | -0.148 |
| ACCCAGAT | -0.23 |
| AATATTCC | -0.0215 |
| CTGCGACC | -0.0178 |
| ACTCTACT | -0.193 |
| CCAGGAAC | -0.142 |
| AAATAACG | 0.0611 |
| TCACTCCA | -0.241 |
| TAACCCAA | -0.207 |
| ACGGACTA | 0.0996 |
| CTTCTATC | -0.0652 |

Repeated from above (sample 2):
| Sequence | median fluorescence |
| --- | --- |
| ACCGCGTCGTGCCTCCTGGCACGACGCGGT (5mC at 9 15 29) | 3390 a.u. |
| GTTGACGTCAGCCTCCTGGCTGACGTCAAC | 9770 a.u. |
| GATGACGTCAGCCTCCTGGCTGACGTCATC | 22900 a.u. |
| GCTGACGTCGGCCTCCTGGCCGACGTCAGC | 5400 a.u. |
